Measured values of several laboratories.
Several values in a cell are separate wells, animals, samples, runs or records. Numbers after ± are the reported error. Values after ≈ are worked out from the molar mass of the structure shown.

SMILES	test	system	setting	scale	measurement	result
CC1N=C(c2ccccc2F)c2cc(Nc3ccc([N+](=O)[O-])cc3)ccc2NC1=O (stereo not shown)	shake flask	PBS	24 h, pH 7.4		solubility	< 1 µM
O=c1[nH]c(Cc2ccccn2)nc2c1cnn2C1CCOCC1		male human, plasma	oral, 50 mg, single dose		Tmax	0.33 h
CC[C@H](C)[C@H](NC(=O)[C@@H](NC(=O)[C@H](CC(N)=O)NC(=O)[C@H](CCC(N)=O)NC(=O)[C@@H]1CCCN1C(=O)[C@@H](NC(=O)[C@H](Cc1ccc(O)cc1)NC(=O)CNC(=O)[C@H](Cc1ccc(O)cc1)NC(=O)[C@H](Cc1c[nH]c2ccccc12)NC(=O)[C@H](Cc1c[nH]cn1)NC(=O)[C@H](Cc1ccc(O)cc1)NC(=O)CCOCCOCCOCCOCCC(=O)NCCCN(CCCNC(=O)CCOCCOCCOCCOCCC(=O)NCCCC[C@@H]1NC(=O)[C@@H](Cc2ccc(O)cc2)NC(=O)[C@H](CC(=O)O)NC(=O)CNC(=O)[C@H](CCCNC(=N)N)NC1=O)CC(=O)NCCOCCOCCOCCOCCC(=O)N[C@@H](CCCCNC(=O)CC[C@H](C(=O)O)N1CCN(CC(=O)O)CCN(CC(=O)O)CC1)C(N)=O)[C@@H](C)O)C(C)C)C(=O)O [gallium-68 labelled]	PET/CT	BALB/c nude mice, female, A-431 xenograft, tumour	intravenous, dose not given, without blocking		SUV	0.43 ± 0.21 SUV
[123I]c1cncc(OC[C@@H]2CCN2)c1	SPECT	human, head of caudate nucleus	intravenous bolus, 7.35 mCi	reference: tissue over plasma	tissue/plasma ratio	34
COC(=O)N[C@H](C(=O)N1CCC[C@H]1C(=O)Nc1ccc([C@@H]2CC[C@@H](c3ccc(NC(=O)[C@@H]4CCCN4C(=O)[C@@H](NC(=O)OC)C(C)C)cc3)N2c2ccc(C(C)(C)C)cc2)cc1)C(C)C		healthy human volunteers, plasma	oral, dose not given, alone, omeprazole interaction study		AUC(0-24)	1490 ng·h/mL
O=C(N[C@@H](Cn1ccnc1)c1ccc(-c2ccc(F)cc2)cc1F)c1ccc(-c2nnc(-c3ccccc3)o2)cc1		mouse, plasma	oral, 25 mg/kg, DGAT formulation		Cmax	11000 ng/mL
O=c1c(O[C@@H]2O[C@H](CO)[C@@H](O)[C@H](O)[C@H]2O)c(-c2ccc(O)c(O)c2)oc2cc(O)cc(O)c12		rat, liver	intravenous, 10 mg/kg, 7 days	reference: control	PXR protein level increase	79.8%
CCOC(=O)C1=C(CN2CCOCC2)NC(c2nccs2)=NC1c1ccc(F)cc1Br (stereo not shown)		human	concentration not given, 8 days		maximum ALT	511 IU/mL
CCCCCCCCCC[N+](C)(C)CCCCCCCCCC	in vitro-in vivo extrapolation	human			hepatic clearance	2.47 mL/h/g liver
CCCCCOc1ccc(-c2ccc(-c3ccc(C(=O)N[C@H]4C[C@@H](O)[C@@H](O)NC(=O)[C@@H]5[C@@H](O)[C@@H](C)CN5C(=O)[C@H]([C@@H](C)O)NC(=O)[C@H]([C@H](O)[C@@H](O)c5ccc(O)cc5)NC(=O)[C@@H]5C[C@@H](O)CN5C(=O)[C@H]([C@@H](C)O)NC4=O)cc3)cc2)cc1		human neonates, plasma	intravenous, 1.5 mg/kg/day after 3 mg/kg loading, 0-24 h		AUC steady state	74900 ng·h/mL
O=C(NCCc1ccc(F)cc1F)c1cn(Cc2ccc(F)cc2)cc(O)c1=O		PBS	72 h, pH 7.2		solubility	2.2 µM (≈ 0.885 µg/mL)
CN[C@@](C)(C[18F])C(=O)O		SCID mouse U87 xenograft, spleen	30 min, post injection		tissue uptake	14 ± 2.5 %ID/g
CSCC[C@@H]1NC(=O)[C@H](CC(=O)O)NC(=O)CNC(=O)[C@H](CCCNC(=N)N)NC(=O)[C@H](C)NC(=O)[C@H](CCC(=O)O)NC(=O)[C@H](CCCNC(=N)N)NC(=O)[C@@H]2CSSC[C@@H]3NC(=O)[C@H](CO)NC(=O)[C@H]([C@@H](C)O)NC(=O)[C@@H]4CCCN4C(=O)[C@H](C)NC(=O)[C@H](Cc4c[nH]c5ccccc45)NC(=O)[C@H](CC(=O)O)NC(=O)CNC(=O)[C@H](CCCNC(=N)N)NC(=O)CNC(=O)[C@H](CCC(N)=O)NC(=O)[C@@H]4CCCN4C(=O)[C@@H](NC(=O)CNC(=O)C(C)F)CSSC[C@H](NC(=O)CNC(=O)[C@H](C)NC(=O)[C@H](CC(C)C)NC(=O)[C@H](CSSC[C@@H](C(=O)NCC(N)=O)NC(=O)[C@H]([C@@H](C)O)NC(=O)[C@H](CCCNC(=N)N)NC(=O)[C@@H]4CCCN4C1=O)NC(=O)[C@H](CC(=O)O)NC(=O)[C@H](CO)NC(=O)[C@H](CC(=O)O)NC(=O)[C@H](CCC(N)=O)NC(=O)[C@H](CO)NC3=O)C(=O)N[C@@H](C(C)C)C(=O)N2 (stereo partly shown) [fluorine-18 labelled]		nude mice U-87 MG xenograft, brain	intravenous, 0.5 h		tissue uptake	0.13 ± 0.03 %ID/g
COc1c(OCCCN2CCOCC2)ccc2c1N=C(NC(=O)c1cnc(N)nc1)N1CCN=C21		human, plasma	intravenous, cycle 1 day 1, all cohorts		median Tmax	~1 h
CCCCCCCCCC(=O)N[C@@H](Cc1c[nH]c2ccccc12)C(=O)N[C@H](CC(N)=O)C(=O)N[C@@H](CC(=O)O)C(=O)N[C@@H]1C(=O)NCC(=O)N[C@@H](CCCN)C(=O)N[C@@H](CC(=O)O)C(=O)N[C@H](C)C(=O)N[C@@H](CC(=O)O)C(=O)NCC(=O)N[C@H](CO)C(=O)N[C@@H]([C@H](C)CC(=O)O)C(=O)N[C@@H](CC(=O)c2ccccc2N)C(=O)O[C@@H]1C		human, plasma	7 mg/kg every 48 h, day 23		trough plasma concentration	33.4 µg/mL
CCCCCOc1ccc(-c2ccc(-c3ccc(C(=O)N[C@H]4C[C@@H](O)[C@@H](OCC[N+](C)(C)C)NC(=O)[C@@H]5[C@@H](O)[C@@H](C)CN5C(=O)[C@H]([C@@H](C)O)NC(=O)[C@H]([C@H](O)[C@@H](O)c5ccc(O)cc5)NC(=O)[C@@H]5C[C@@H](O)CN5C(=O)[C@H]([C@@H](C)O)NC4=O)cc3)cc2)cc1		healthy adult human, plasma	subcutaneous, 10 mg		terminal half-life	188 h
Oc1cccc2ccccc12	fish short-term reproduction	Oryzias latipes, male, water, flow-through	258 µg/L, end of exposure		body length	38.2 ± 1.4 mm
Oc1ccc2cc3ccc4cccc5ccc(c2c1)c3c45	UPLC-AMS	human, plasma	oral, 100 ng of [14C]-BaP		AUC	21.9 ± 17.9 fg BaP equivalents·h/mL
CSCC[C@H](N)C(=O)N[C@@H](CC(N)=O)C(=O)N[C@@H](Cc1ccccc1)C(=O)N[C@@H](CCCNC(=N)N)C(=O)N1CCC[C@H]1C(=O)NCC(=O)N[C@H](C(=O)N[C@@H](CC(C)C)C(=O)N[C@@H](CO)C(=O)N[C@@H](CO)C(=O)N[C@@H](CCCNC(=N)N)C(=O)N[C@@H](CCC(N)=O)C(=O)N[C@@H](CC(C)C)C(=O)NCC(=O)N[C@@H](CC(C)C)C(=O)N1CCC[C@H]1C(=O)NCC(=O)N1CCC[C@H]1C(=O)N1CCC[C@H]1C(=O)N[C@@H](CC(=O)O)C(=O)N[C@H](C(=O)N1CCC[C@H]1C(=O)N[C@@H](CC(=O)O)C(=O)N[C@@H](Cc1c[nH]cn1)C(=O)N[C@@H](C)C(=O)N[C@@H](C)C(=O)N[C@@H](Cc1ccc(O)cc1)C(=O)N[C@@H](Cc1c[nH]cn1)C(=O)N1CCC[C@H]1C(=O)N[C@@H](Cc1ccccc1)C(=O)O)C(C)C)C(C)C	LC-MS/MS	human serum	concentration not given, 4 h, room temperature, tube with gel separator	reference: initial concentration	change in serum concentration	-10.9 ± 12%
Cc1sc2c(c1C)C(c1ccc(Cl)cc1)=N[C@@H](CC(=O)OC(C)(C)C)c1nnc(C)n1-2	LC-MS	Ringer's solution	50 ng/mL, time not given, glass vessel, glass vial		recovery vs nominal	62.5% and 37%
CCCCCOc1ccc(-c2cc(-c3ccc(C(=O)N[C@H]4C[C@@H](O)[C@@H](O)NC(=O)[C@@H]5[C@@H](O)[C@@H](C)CN5C(=O)[C@H]([C@H](O)CC(N)=O)NC(=O)[C@H]([C@H](O)[C@@H](O)c5ccc(O)c(OS(=O)(=O)O)c5)NC(=O)[C@@H]5C[C@@H](O)CN5C(=O)[C@H]([C@@H](C)O)NC4=O)cc3)no2)cc1		human paediatric patients 2 to 5 years, plasma	intravenous, 4.5 mg/kg once daily, day 7, mean		weight-normalised steady-state clearance	0.333 mL/min/kg
CC(=O)N[C@H](CCCCNC(=O)C(C)F)C(=O)N[C@@H](CS)C(=O)N[C@@H](CS)C(=O)N[C@@H](CCC(=O)O)C(=O)N[C@@H](Cc1c[nH]cn1)C(=O)N[C@H](Cc1ccccc1)C(=O)N[C@@H](CCCNC(=N)N)C(=O)N[C@@H](Cc1c[nH]c2ccccc12)C(=O)N[C@@H](CS)C(=O)N[C@@H](CCCNC(=N)N)C(=O)N1CCC[C@H]1C(=O)N[C@H](C(N)=O)C(C)C (stereo partly shown) [fluorine-18 labelled]		C57BL/6 mice, male, B16-F10 tumour, bone	intravenous, 2 h		tissue uptake	0.68 ± 0.37 %ID/g
